Experimental data of several laboratories.
Each numbered part is a random draw from the data of one study; scales do not carry over between parts.

Sample 1 — technique: aptamer microarray, sandwich; molecule type: DNA with 2'F-ANA; matrix: in vitro; tested at: 200 nM; together with: Cy3 exosite-II aptamer, 400 nM; reading: higher = stronger binding
Target: Prothrombin, mature alpha-thrombin (F2, Homo sapiens, UniProt P00734)
Setting: whole 15-mer aptamer, many near background
Oligonucleotide	mean fluorescence intensity
GGTTGGTGTGGTTGG (2'F-ANA at 1 4 6 7 8 13 15)	94.1 a.u.
GGTTGGTGTGGTTGG (2'F-ANA at 2 3 4 6 7 12 13 14)	256 a.u.
GGTTGGTGTGGTTGG (2'F-ANA at 2 4 5 7 9 10 12 15)	101 a.u.
GGTTGGTGTGGTTGG (2'F-ANA at 1 5 6 8 9 10 12 14)	45.1 a.u.

Sample 2 — technique: RNAcompete; molecule type: RNA; matrix: in vitro; tested at: 20 nM; setting: 7-mer, probes averaged, single round; baseline: mean of 7-mers; reading: higher = stronger binding
Target: PABPC1L2, full length, GST fusion (mouse, UniProt A0ABA7IW68)
Target sequence (chain): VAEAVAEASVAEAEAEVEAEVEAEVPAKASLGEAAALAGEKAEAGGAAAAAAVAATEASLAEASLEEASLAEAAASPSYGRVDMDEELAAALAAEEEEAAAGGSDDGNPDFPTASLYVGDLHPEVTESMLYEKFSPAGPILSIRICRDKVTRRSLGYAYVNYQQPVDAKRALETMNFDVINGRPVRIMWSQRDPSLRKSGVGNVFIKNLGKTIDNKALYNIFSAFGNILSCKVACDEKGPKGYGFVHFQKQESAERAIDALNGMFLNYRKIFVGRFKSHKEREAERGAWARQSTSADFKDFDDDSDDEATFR
Oligonucleotide	7-mer Z-score
CUCGUCU	-0.521
GUACACU	-0.119
GAUCGCC	-0.385
GCAGCGU	0.00617
AGAGGUC	-0.195

Sample 3 — technique: competition protein-binding microarray; molecule type: double-stranded DNA, one strand shown; matrix: in vitro; tested at: 2 µM; together with: Cbf1 competitor, 0.05 µM; reading: higher = stronger binding; shared flanks, not repeated: … GTCTTGATTCGCTTGACGCTGCTG
Target: Phosphate system positive regulatory protein PHO4, full length, GST-tagged (PHO4, Saccharomyces cerevisiae, UniProt P07270, residues 1-312)
Setting: whole 60-bp probe, lowest competitor level
Target sequence (chain): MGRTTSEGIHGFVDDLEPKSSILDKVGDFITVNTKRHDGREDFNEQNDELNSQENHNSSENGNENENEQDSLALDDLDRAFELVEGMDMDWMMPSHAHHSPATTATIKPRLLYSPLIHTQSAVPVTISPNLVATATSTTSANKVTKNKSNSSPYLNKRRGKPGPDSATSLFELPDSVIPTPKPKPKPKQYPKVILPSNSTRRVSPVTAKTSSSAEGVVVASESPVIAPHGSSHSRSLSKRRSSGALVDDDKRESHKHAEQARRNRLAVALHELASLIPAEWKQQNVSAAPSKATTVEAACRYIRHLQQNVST
Oligonucleotide	fluorescence intensity
GTAGCAGAGGTGGTTCCCGTGGAGGTTCCAGAGGTG	6550 a.u.
TTACAGATAATGGTGCATGTGATAGGCTTCGTACCA	8970 a.u.
AAAGCGGTAATTTGGTCCGTGGGTGCAGATATCTAT	7140 a.u.
TGCGCAACAACTTGTACTGTGGGTGTATGTCTAGAA	4500 a.u.
GTTGTTCCATGCTCAGTTGTGATATTGAATGCCCTC	5260 a.u.
CATACCCAACCTTGGTACGTGGGTGAAGATATTTGT	9740 a.u.

Further values, each from its own experiment
Substance	target	assay	test system	conditions	scale	quantity	result
PhoQ, residues 284 288 289 292 302 303 TSTLRA	PhoP, residues 12 14 15 18 19 NIMAP (Escherichia coli, UniProt P23836)	Sort-seq, refers to: YFP reporter	E. coli	PhoQ-PhoP variant library, together with: 10 µM Mg2+	baseline: high Mg2+ state, higher = stronger signaling	fold induction	0.368

Some of these lines once more (further values, each from its own experiment):
Substance	target	assay	test system	conditions	scale	quantity	result
PhoQ, residues 284 288 289 292 302 303 TSTLRA	PhoP, residues 12 14 15 18 19 NIMAP (Escherichia coli, UniProt P23836)	Sort-seq, refers to: YFP reporter	E. coli	PhoQ-PhoP variant library, together with: 10 µM Mg2+	baseline: high Mg2+ state, higher = stronger signaling	fold induction	0.368
